# Measurements from different studies.
# Parts stem from different laboratories: compare values within a part only. Substitutions count along the parent as printed.
# UniProt Q9NY57, sequence (whole entry, looked up): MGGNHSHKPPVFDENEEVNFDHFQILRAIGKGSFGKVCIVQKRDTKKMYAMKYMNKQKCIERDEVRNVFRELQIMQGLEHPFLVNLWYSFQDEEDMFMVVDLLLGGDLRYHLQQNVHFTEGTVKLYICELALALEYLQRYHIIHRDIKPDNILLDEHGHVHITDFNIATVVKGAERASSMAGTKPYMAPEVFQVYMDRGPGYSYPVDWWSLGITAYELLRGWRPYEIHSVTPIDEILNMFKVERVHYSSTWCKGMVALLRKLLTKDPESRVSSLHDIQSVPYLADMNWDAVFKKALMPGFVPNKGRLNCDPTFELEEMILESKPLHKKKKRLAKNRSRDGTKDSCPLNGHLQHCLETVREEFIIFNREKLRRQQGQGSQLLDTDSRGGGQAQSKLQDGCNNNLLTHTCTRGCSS
# UniProt Q02763, sequence (whole entry, looked up): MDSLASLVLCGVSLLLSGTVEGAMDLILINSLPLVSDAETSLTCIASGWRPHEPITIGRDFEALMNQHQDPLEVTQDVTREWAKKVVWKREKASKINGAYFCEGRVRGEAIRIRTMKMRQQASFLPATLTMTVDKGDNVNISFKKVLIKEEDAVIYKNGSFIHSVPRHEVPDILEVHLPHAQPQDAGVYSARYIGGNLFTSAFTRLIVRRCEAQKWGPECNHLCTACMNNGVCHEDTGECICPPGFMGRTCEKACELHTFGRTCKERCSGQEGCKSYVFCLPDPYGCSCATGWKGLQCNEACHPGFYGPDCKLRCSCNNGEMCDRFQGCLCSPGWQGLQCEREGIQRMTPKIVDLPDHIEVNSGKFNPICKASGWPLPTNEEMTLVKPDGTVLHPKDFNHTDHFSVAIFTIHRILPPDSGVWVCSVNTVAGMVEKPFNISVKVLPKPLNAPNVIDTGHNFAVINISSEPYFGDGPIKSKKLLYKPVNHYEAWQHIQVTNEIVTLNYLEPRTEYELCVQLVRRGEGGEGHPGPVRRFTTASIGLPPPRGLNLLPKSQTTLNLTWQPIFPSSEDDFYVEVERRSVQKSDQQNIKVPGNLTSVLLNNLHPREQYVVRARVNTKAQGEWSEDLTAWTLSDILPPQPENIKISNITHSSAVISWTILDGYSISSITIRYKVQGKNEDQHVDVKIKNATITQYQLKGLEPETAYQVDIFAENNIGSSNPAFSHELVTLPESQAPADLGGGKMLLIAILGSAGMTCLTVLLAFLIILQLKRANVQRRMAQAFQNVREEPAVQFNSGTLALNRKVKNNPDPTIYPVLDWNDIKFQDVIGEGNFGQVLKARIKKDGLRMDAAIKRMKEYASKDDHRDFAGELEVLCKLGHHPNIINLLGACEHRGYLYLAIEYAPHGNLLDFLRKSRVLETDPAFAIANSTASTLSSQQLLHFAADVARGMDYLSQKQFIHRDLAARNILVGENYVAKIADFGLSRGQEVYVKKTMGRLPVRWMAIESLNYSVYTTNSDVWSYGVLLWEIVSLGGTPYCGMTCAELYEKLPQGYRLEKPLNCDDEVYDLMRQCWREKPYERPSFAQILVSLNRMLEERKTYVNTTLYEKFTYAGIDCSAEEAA
# UniProt O94921, sequence (whole entry, looked up): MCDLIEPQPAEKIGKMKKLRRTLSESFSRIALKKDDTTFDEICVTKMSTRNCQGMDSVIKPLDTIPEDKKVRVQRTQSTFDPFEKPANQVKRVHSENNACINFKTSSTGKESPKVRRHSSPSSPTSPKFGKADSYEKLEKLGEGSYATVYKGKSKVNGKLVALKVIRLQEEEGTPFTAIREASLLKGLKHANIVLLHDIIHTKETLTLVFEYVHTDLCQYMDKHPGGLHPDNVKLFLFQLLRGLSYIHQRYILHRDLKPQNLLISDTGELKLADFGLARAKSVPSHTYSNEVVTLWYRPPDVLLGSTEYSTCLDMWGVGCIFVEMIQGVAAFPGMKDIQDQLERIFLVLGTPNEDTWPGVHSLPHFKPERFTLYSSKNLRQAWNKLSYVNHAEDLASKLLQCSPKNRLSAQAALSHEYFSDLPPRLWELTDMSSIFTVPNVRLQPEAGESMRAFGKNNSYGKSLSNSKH
# UniProt Q6P2M8, sequence (whole entry, looked up): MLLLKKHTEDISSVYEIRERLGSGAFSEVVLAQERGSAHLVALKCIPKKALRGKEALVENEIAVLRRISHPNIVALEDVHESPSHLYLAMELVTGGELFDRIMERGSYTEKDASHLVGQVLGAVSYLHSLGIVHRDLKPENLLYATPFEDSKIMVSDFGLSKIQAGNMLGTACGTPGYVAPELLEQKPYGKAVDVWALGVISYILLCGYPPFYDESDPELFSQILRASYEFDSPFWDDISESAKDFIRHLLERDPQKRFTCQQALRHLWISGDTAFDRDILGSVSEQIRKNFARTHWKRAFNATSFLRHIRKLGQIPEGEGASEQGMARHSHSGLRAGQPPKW
# UniProt Q9UQ88, sequence (whole entry, looked up): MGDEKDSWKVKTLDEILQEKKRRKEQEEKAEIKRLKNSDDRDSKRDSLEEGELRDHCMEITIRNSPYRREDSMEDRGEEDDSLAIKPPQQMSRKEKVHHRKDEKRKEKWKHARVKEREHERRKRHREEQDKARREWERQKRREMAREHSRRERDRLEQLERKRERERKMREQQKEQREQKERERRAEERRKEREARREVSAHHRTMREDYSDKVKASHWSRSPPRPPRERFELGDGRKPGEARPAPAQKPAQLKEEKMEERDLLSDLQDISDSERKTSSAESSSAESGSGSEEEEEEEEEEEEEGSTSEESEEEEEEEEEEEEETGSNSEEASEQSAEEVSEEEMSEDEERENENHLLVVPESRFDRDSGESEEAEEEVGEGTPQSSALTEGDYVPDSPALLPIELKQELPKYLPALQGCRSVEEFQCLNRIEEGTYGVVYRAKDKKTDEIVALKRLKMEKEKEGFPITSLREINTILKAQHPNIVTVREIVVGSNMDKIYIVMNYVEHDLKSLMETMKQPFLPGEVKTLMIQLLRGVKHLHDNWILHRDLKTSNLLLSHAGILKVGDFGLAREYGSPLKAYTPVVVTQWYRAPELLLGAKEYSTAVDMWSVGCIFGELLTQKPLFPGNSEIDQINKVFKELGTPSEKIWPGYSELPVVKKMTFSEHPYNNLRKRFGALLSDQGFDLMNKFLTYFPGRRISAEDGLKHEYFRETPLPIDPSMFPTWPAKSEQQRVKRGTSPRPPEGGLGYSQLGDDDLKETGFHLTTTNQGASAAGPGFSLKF
# UniProt P68400, sequence (whole entry, looked up): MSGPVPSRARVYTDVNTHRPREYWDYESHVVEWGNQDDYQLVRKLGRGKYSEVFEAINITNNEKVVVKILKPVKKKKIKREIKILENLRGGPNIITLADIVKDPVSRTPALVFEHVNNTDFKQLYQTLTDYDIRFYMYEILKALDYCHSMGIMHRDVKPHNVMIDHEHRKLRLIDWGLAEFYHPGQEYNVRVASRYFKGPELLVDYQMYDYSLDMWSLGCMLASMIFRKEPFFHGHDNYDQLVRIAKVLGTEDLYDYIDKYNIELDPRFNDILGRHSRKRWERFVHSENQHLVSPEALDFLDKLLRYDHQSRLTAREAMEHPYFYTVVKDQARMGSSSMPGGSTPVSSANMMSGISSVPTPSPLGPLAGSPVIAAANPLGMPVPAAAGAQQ
# UniProt P07333, sequence (whole entry, looked up): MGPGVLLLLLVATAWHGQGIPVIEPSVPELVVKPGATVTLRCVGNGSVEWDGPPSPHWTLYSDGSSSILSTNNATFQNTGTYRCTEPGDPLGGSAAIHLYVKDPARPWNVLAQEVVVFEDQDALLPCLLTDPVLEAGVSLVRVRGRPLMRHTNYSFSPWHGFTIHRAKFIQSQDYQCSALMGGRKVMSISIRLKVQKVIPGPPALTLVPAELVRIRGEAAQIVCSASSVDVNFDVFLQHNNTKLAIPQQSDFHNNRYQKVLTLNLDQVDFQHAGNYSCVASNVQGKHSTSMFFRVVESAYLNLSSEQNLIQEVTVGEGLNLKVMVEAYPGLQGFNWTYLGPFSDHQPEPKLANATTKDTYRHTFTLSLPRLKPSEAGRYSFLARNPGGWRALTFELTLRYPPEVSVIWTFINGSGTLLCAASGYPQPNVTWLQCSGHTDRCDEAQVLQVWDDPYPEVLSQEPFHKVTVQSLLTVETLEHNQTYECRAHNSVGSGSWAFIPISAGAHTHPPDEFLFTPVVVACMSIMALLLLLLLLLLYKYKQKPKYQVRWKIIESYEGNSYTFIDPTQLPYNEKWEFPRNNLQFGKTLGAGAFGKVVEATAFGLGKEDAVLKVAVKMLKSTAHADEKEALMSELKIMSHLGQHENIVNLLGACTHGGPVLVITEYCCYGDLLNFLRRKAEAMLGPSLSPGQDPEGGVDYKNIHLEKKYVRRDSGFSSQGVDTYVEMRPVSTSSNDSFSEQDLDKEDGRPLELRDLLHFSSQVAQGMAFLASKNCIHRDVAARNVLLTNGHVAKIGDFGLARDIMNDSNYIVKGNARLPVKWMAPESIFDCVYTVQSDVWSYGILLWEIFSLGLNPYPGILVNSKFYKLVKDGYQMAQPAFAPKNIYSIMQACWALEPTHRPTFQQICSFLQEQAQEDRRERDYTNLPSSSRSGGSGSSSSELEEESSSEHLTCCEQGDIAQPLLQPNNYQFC

# Sample 1
# SMILES: N#CC1(c2ccccn2)CCN(Cc2cc(C(=O)O)c(=O)n3ccccc23)CC1
# Technique: competition with immobilised ligand
# Concentration: 1 µM
target,effect on,remaining binding [%]
"TEK (Homo sapiens, UniProt Q02763)",cell-free assay,95
"SRPK2 (Homo sapiens, UniProt P78362)",cell-free assay,100
"Ribosomal protein S6 kinase alpha-4, N-terminal kinase domain (RPS6KA4, Homo sapiens, UniProt O75676)",cell-free assay,94
"RAF1 (Homo sapiens, UniProt P04049)",cell-free assay,100
"CDK13 (Homo sapiens, UniProt Q14004)",cell-free assay,98
"PNCK (Homo sapiens, UniProt Q6P2M8)",cell-free assay,100
"PIK3CA (Homo sapiens, UniProt P42336, H1047L)",cell-free assay,80
"CDK11A (Homo sapiens, UniProt Q9UQ88)",binding,100
"CDK14 (Homo sapiens, UniProt O94921)",cell-free assay,100
"KIT (Homo sapiens, UniProt P10721, L576P)",cell-free assay,100
"STK32B (Homo sapiens, UniProt Q9NY57)",cell-free assay,100
"FLT3 (Homo sapiens, UniProt P36888, K663Q)",cell-free assay,100
"CSNK2A1 (Homo sapiens, UniProt P68400)",cell-free assay,86
"ALK (Homo sapiens, UniProt Q9UM73)",cell-free assay,100

# Sample 2
# Target: HLA class I histocompatibility antigen, C alpha chain, allele C*04:01 (Homo sapiens, UniProt P10321)
# Effect on: peptide-MHC binding
# Molecule type: peptide
# Concentration: concentration not given
Molecule,binding
KVYWAGIEF,inactive
VYYIVVRDF,inactive
MAWERGPAL,inactive
IYASRPLDF,inactive
STMRRMALR,inactive
AELGAFFSI,inactive

# Sample 3
# Target: CCNA1, cyclin fold, Cln2 fusion (human)
# Technique: yeast growth competition, sequencing
# Medium: yeast
# Setting: weak parent motif
# Baseline: not given
# Direction: higher = stronger binding
# Parent: viral docking peptide; KGVKRKLFAEDSS; partner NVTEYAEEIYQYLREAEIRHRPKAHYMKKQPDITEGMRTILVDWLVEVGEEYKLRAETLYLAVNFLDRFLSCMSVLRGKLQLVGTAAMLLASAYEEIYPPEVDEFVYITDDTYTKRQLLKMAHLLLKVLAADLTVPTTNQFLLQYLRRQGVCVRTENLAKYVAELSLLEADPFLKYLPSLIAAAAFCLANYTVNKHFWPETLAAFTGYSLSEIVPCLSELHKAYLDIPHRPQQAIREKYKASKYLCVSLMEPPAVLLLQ
Variant,normalised enrichment score
KGVKRKKFAEDSS [L7K],0.371
KEVKRKLFAEDSS [G2E],0.973
KGVKRKLFAEWSS [D11W],0.31
KGVKRKLFNEDSS [A9N],0.868
KGVKRKLFAQDSS [E10Q],0.642
KGVKRKLFAEHSS [D11H],0.969
KGVKRKLFFEDSS [A9F],0.939
KGVKRKLEAEDSS [F8E],0.402

# Other studies, line by line
Structure (SMILES),target,effect on,action,concentration,baseline,quantity,result
O=C1NC(=O)c2c1c1c3ccccc3n3c1c1c2c2ccccc2n1[C@H]1CC[C@@H]3O1,"Macrophage colony-stimulating factor 1 receptor (CSF1R, Homo sapiens, UniProt P07333)",enzyme activity,inhibitor,0.5 µM,control,remaining activity,29.3%

# Repeated from above (sample 2):
Molecule,binding
VYYIVVRDF,inactive
AELGAFFSI,inactive
